Experimental data gathered from unrelated publications.
A part holds a random share of what one study measured.

Set 1 — technique: protein-binding microarray; form: double-stranded DNA, one strand shown; sample: in vitro; tested at: 940 nM top; notes: 60-bp whole probe; with: salmon DNA 0.4 mg/ml; relative to: random background probes; reading: higher = stronger binding; constant ends, left off below: GCCTAGCAC … GTCTTGATTCGCTTGACGCTGCTG
Target: Interferon regulatory factor 5, full length, phosphomimetic (IRF5, Homo sapiens, UniProt Q13568-2, residues 1-514, S451D/S453D/S456D/S462D)
Sequence	fitted relative affinity
TGAGGACTGGGTATCGGTTAGTGCTAG	3.29 z-score
GACGATATCGGGCCTGGAGACGTGCTA	-0.515 z-score
GACGATTTCAGACTGGAAACGTGCTAG	-0.351 z-score
GACGGACTGGACACTGGGCACGTGCTA	-0.705 z-score
GACGCTTTCGGTATCGGGACGTGCTAG	6.67 z-score
GACGGTTTCGGGTTGCGGGACGTGCTA	8.62 z-score
TAAGGTTTCGGGTATCGGTTAGTGCTA	8.64 z-score
TCATTTCCCAACATCAGACTGTGCTAG	1.19 z-score
GACGGTCTCGGTATAGGGACGTGCTAG	4.25 z-score
GACGATTTCGGGACTTGAGACGTGCTA	0.104 z-score
GAGGGTTTCGGGTTTCGGGACGTGCTA	7.47 z-score
GAACATATTTGTTTCCATTTGTGCTAG	0.531 z-score
CACTTTTCCTACATCAGCTGGTGCTAG	1.38 z-score
ATAGGTATCGACTATCGGTTAGTGCTA	5.59 z-score
TAAGGACTGCTACTGCTTTAGTGCTAG	-0.492 z-score
TTAGGTTTCCTTCTCCTTTTGTGCTAG	2.09 z-score
TTAGATATCAGTCTCGGTTAGTGCTAG	3.53 z-score
TTAGGTTTCGGACTGTGTTAGTGCTAG	7.36 z-score
GACGGACTGGGCTTCGGGACGTGCTAG	-0.637 z-score
AGTCCTGTCCAAGATGAGGAGTGCTAG	-0.325 z-score
GACGATCTCAGTCTCGACACGTGCTAG	0.928 z-score
CAGAAAATGGAAACTCGTATGGTGCTA	-0.111 z-score
GACGATCTCAGTATTGAGACGTGCTAG	0.075 z-score
GTAGAACTGAGTATCGATTAGTGCTAG	4.31 z-score
GACGGACTGGGTCTCGGGAGGTGCTAG	-0.06 z-score

Set 2 — technique: RNA Bind-n-Seq; form: RNA; sample: in vitro; tested at: 365 nM; relative to: no-protein control; reading: higher = stronger binding
Target: RNA binding protein fox-1 homolog 2, RRM domain, GST-SBP tag (RBFOX2, Homo sapiens, UniProt O43251-10, residues 100-194)
Notes: natural RNA segment, single round, ends assumed
Construct (chain): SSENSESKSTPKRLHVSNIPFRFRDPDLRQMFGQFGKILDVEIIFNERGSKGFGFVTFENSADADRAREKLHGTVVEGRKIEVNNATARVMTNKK
Sequence	RBNS enrichment (R)
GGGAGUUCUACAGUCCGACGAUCAACCUUCCCUCUGUUCCAUGGUCUUUGUGAACCUGCUUAGAGGUAUAGUUUUGAUAACCACAGUUUUAAUUCUUUUAUCUGUGCAUAAUAAAGAUAUGUAUCAAUUAUUAUGGAAUUCUCGGGUGCCAA	0.441
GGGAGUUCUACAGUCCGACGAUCUAUUAAAGGAGCAAAAACCCACUCUAUUGGUCCAUUAGUUCCAGCAAGAGAAGUUAGAGGAGAAUUAAUAUAUUUCGUGCAAAAGUACUACAAACUUAAGUGUAUGUGCUUGGAAUUCUCGGGUGCCAA	0.36
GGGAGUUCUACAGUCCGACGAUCAGAAGGCUGGAGGUGACAUGUCCGAGGUCACACAACAAAGCAGCAUGCAGGAACUAGAAACACAUCUUCAGCCUCCUCCUGGGCCAGCUCUUGUGCUACAGGUGGGGCGGUGGAAUUCUCGGGUGCCAA	13.8
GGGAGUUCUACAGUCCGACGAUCCAAGAUGAAUGAACUAAUGGAGAAAUAGAAAGUCUUCAGUGAUGGCCUACGCCAAAGCACAGGAUGGGGCGGGCAGGAAGCCCUCUCCCAAGAUCGAGUUGGCCGAGGAUUGGAAUUCUCGGGUGCCAA	0.492
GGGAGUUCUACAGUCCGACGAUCGGGACCUUUUGUACUUUAUUUGAACUAUGAGUCUUUAAUUUUUCCUGAUGAUGGUGGCUGUAAUAUGUUGAGUUCAGUUUACUAAAGGUUUUACUAUUAUGGUUUGAAGUUGGAAUUCUCGGGUGCCAA	1.04
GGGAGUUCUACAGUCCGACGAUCAGAACUUCAGGGUUAUUCCAAGUACUUGUGUGACUUGGAAAAGUAGACUUGGGUUGUGGGAACAGUUGAUAAAGUUCUGGAAAGAUGCCAUUCAUUCUACAGUCUUCCCAUGGAAUUCUCGGGUGCCAA	0.326
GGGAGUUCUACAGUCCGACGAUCAGUGAGAGUAUUUAUUUUUGGCAUGUUUGGCCCACCACACAGACUCUGUGUGUGUAUGUGUGUGUUUAUAUGUGUAUGUGUGUGACAGAAAAAUCUGUAGAGAAGAGGCAUGGAAUUCUCGGGUGCCAA	5.77
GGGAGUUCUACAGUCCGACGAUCAGUCAUGAAGAUUGAGUUAAUCUCUGAAAUAUCCACACAGUGUUGUCACUCAGGAAUGAUUUGGAAUGUUAGGGAUAGUCACCCACCACCACAGUGCUAGGUUUCAGUGAUGGAAUUCUCGGGUGCCAA	0.861
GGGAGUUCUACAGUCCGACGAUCAAGAUUCCCAGGCCACAGUAUAGCCUUUGCUGUGCCCUGUGGCCUGGCCACAGUGAGGCAUGUAUCUGUAGUUCCUUGCUGAAUAACAAGAAGAUAUAUGUUUGUAUAUCUGGAAUUCUCGGGUGCCAA	0.529
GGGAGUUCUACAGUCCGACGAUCUGAUUUAACAGUUUCUGUGUAUGUUAAACUUUCAAGUGUUUUUUUAAAUCAUAAUGUGUAAUAAUUGUGUAUCAUUUUGUCUACAAUAAAACGUUUAGUAUUUGCAAUGGUGGAAUUCUCGGGUGCCAA	1.13
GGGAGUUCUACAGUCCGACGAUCUGUAAACCACAUAAUUUCUGUACAUCCCAAAGGAUGAGAAGUGUGACCUUCAAGAAAAUGGAAAUAUUUGUAAAUUCUUGGUAAUGCCUCCGUUGUAAUUAAUGAAACUAUGGAAUUCUCGGGUGCCAA	0.529
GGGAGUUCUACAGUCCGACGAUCAUAAUGCUAGAUGAAGCUGUGAACCCCCCCCCCCCCUCCUGCUGAUAGAGCAGGGCAUGGGUGCUGGCCUCAGUGCUCAGCCUGCUCUUUAAUAAAGGUACCUCUUUUCUUGGAAUUCUCGGGUGCCAA	1.15

Set 3 — technique: protein binding microarray; form: double-stranded DNA, one strand shown; sample: in vitro; tested at: not given; relative to: not given; reading: higher = stronger binding
Target: Histone acetyltransferase KAT6A, both winged helices, GST fusion (KAT6A, Homo sapiens, UniProt Q92794, residues 1-181)
Notes: 8-mer, flanks averaged, mean of 2 arrays, mostly near background
Target sequence (chain): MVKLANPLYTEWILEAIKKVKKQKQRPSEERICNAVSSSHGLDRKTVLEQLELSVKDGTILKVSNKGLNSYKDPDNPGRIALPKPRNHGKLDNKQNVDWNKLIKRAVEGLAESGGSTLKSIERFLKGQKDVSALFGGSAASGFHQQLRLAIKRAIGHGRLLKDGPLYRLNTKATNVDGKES
Sequence	E-score
CGGTCTGC	0.224
AGTTGTTG	-0.229
ACATCGCG	0.259
CAAGAAGG	-0.107
TACCTACA	-0.0603
CGCAGCAG	0.139
GGTACACA	0.12
GCTATGAC	0.0761
AAATCCAA	-0.0549
GTACATTA	-0.017
AGTTTGCA	-0.14
ATGTACGA	-0.111
TGATTAAA	-0.0145
GTTTGCAA	-0.0576
ACCCAGGA	-0.0948
CCTGAGGA	-0.236
AGGGTTGC	-0.163
GATCTAAA	-0.0808

Set 4 — technique: universal PBM; form: double-stranded DNA, one strand shown; sample: in vitro; tested at: 600 nM; reading: higher = stronger binding
Target: Sal-like protein 4, full length isoform A (SALL4, Homo sapiens, UniProt Q9UJQ4, residues 1-1053)
Sequence of UniProt Q9UJQ4 (whole entry, looked up): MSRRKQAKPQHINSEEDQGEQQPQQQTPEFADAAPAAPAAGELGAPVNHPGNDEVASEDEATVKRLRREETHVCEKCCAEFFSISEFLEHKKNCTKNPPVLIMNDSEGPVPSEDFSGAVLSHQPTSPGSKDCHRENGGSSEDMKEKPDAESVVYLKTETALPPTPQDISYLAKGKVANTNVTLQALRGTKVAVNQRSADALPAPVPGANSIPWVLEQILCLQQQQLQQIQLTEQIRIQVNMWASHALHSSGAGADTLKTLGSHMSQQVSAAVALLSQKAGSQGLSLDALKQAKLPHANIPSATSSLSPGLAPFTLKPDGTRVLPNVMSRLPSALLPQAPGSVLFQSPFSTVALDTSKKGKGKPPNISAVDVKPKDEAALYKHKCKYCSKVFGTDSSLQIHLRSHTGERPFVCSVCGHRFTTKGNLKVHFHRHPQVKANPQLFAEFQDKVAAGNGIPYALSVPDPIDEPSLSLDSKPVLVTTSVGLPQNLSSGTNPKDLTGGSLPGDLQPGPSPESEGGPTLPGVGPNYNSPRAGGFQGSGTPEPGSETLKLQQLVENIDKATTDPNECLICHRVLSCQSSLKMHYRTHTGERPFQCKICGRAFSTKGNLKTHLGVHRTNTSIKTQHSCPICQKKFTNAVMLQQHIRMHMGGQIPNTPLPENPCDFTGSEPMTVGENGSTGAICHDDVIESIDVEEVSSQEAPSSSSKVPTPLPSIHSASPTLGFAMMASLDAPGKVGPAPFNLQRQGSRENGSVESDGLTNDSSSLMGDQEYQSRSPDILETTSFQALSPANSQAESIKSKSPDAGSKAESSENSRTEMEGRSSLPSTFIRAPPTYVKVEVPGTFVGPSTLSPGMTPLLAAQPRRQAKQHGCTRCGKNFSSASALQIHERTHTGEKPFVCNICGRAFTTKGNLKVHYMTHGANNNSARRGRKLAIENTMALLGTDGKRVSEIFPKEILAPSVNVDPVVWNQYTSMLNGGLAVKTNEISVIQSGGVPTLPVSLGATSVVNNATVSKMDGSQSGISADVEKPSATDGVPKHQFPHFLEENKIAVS
Notes: 8-mer, flanks averaged, mean of replicates
Sequence	E-score
GAATTACA	0.198
CAACTGTC	-0.112
GACAACTA	0.143
CCTAGTGC	-0.148
AGGACCCG	-0.39
AAGAGGAC	-0.172
TACACTAA	0.205
ACACAAGC	-0.0564
GGACGAGA	-0.0512
AGTCCTGG	-0.322
ACTATACC	0.17
CCGTGGAC	-0.274
AATTCATG	0.279
CACGCATC	-0.0776
CTAGGTCC	-0.254
AGCGACCG	-0.323
GTTTGCAA	0.176
CAGTTTCG	-0.102
CTACGCCA	-0.148
CAAGCCTG	-0.0931

Set 5 — technique: aptamer microarray, sandwich; form: DNA with 2'F-ANA; sample: in vitro; tested at: 200 nM; with: Cy3 exosite-II aptamer, 400 nM; reading: higher = stronger binding; sequence: GGTTGGTGTGGTTGG
Target: Prothrombin, mature alpha-thrombin (F2, Homo sapiens, UniProt P00734)
Notes: whole 15-mer aptamer, many near background
Modification	mean fluorescence intensity [a.u.]
2'F-ANA at 1 2 5 6 7 8 9 11 12 14	52.2
2'F-ANA at 1 2 4 5 7 8 9 10 13 14 15	43.2
2'F-ANA at 3 5 7 8 11 14 15	59.8
2'F-ANA at 3 5 9 11 12 13 14 15	60.8
2'F-ANA at 2 8 11 12 13 15	519
2'F-ANA at 2 3 4 6 7 8 10 12	294
2'F-ANA at 1 3 9 10 11 13 14 15	62.1
2'F-ANA at 1 2 5 6 8 9 13 14	62.8
2'F-ANA at 2 4 5 7 9 12 13 14	45.6
2'F-ANA at 2 6 8 13	343
2'F-ANA at 2 5 6 8 9 10 12	65.2
2'F-ANA at 1 2 3 5 6 7 9 11 15	50.9
2'F-ANA at 3 4 5 8 9 10 12 15	61.7
2'F-ANA at 1 2 5 8 9 12	112
2'F-ANA at 1 2 3 5 6 7 8 9 10 11 14	55.6
2'F-ANA at 1 2 3 4 5 9 10 11 12	50.2

Some of these lines once more (set 5):
Modification	mean fluorescence intensity [a.u.]
2'F-ANA at 2 8 11 12 13 15	519
2'F-ANA at 2 6 8 13	343
2'F-ANA at 3 5 9 11 12 13 14 15	60.8
2'F-ANA at 1 2 3 5 6 7 8 9 10 11 14	55.6
2'F-ANA at 1 3 9 10 11 13 14 15	62.1
2'F-ANA at 2 5 6 8 9 10 12	65.2
2'F-ANA at 1 2 5 6 8 9 13 14	62.8
2'F-ANA at 1 2 4 5 7 8 9 10 13 14 15	43.2
2'F-ANA at 2 3 4 6 7 8 10 12	294
2'F-ANA at 2 4 5 7 9 12 13 14	45.6
2'F-ANA at 1 2 3 5 6 7 9 11 15	50.9
2'F-ANA at 1 2 5 8 9 12	112
2'F-ANA at 1 2 5 6 7 8 9 11 12 14	52.2
